Measured values from different studies.
Each numbered part is a random draw from the data of one study; scales do not carry over between parts.

Sample 1
Target: PABPC1L2, full length, GST fusion (mouse, UniProt A0ABA7IW68)
Technique: RNAcompete
Molecule type: RNA
Sample: in vitro
Tested at: 20 nM
Notes: 7-mer, probes averaged, single round
Relative to: mean of 7-mers
Reading: higher = stronger binding
Residues (chain): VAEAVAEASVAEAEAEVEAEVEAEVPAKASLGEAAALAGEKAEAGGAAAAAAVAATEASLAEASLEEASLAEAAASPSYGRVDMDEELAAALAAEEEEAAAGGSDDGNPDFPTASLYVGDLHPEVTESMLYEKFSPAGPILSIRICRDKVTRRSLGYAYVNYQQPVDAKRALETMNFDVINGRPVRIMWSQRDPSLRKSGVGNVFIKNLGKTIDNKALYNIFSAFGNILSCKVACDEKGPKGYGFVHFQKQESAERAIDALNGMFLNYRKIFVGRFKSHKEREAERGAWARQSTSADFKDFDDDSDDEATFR
Oligonucleotide | 7-mer Z-score
UACACAC | -0.101
UGUGCGG | -0.151
CCCAUGC | -0.438
GAACCAU | -0.124
CGGCGGC | -0.126
AGGAUCG | -0.0246
AUCGUAU | -0.217
CACAAGC | -0.115
CUGGUGG | -0.161
CCGUAAC | -0.275
UAUAAUC | -0.164
ACAGAAA | 2.09
GACCGGC | -0.195
AUGGGUG | 0.0497
CGGACUG | 0.00979
GGAAUCA | 0.017
UGGCCCU | 0.0243
UAUAUAA | 0.164
GGCCAUU | -0.079
AAACUUC | 0.929
GUAACAC | -0.0536
CCACUAG | -0.316
AAUUUAC | 0.376
CGCGAUG | -0.153
CGGCGGU | -0.0518

Sample 2
Target: Histone acetyltransferase KAT6A, both winged helices, GST fusion (KAT6A, Homo sapiens, UniProt Q92794, residues 1-181)
Technique: protein binding microarray
Molecule type: double-stranded DNA, one strand shown
Sample: in vitro
Tested at: not given
Notes: 8-mer, flanks averaged, mean of 2 arrays, mostly near background
Relative to: not given
Reading: higher = stronger binding
Residues (chain): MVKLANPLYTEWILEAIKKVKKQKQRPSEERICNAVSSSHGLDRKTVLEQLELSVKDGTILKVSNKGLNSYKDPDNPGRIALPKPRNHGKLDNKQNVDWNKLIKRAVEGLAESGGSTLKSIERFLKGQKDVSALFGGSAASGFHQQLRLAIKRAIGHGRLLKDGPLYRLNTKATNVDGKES
Oligonucleotide | E-score
CTTCGGAA | 0.178
ACATACAT | -0.125
CGGAACGA | -0.0147
ACTCGGAA | 0.0311
AACGGAGA | 0.196
ATGTCTTA | -0.0407
AGGTCATA | -0.141
CCGGTCAC | 0.123
AGTCTGTG | -0.116
AGCAACGA | -0.12
ACTCGACA | -0.065
ATCTGGGC | -0.0661
CATCATTA | -0.0193
CAGCTTGC | 0.0626
CTAGCCGC | 0.262
AGAGAGGG | -0.109
TACTAGTA | 0.00161
GACCAGAA | -0.0846
CACATTCG | 0.105
CCTGGTAC | -0.196
CGTGGATA | 0.126
CATATCCC | 0.0561
ATACACCC | 0.0336
CACAAGGG | -0.00402
CCGTTCGA | 0.0329

Sample 3
Target: RING finger protein unkempt homolog, zinc fingers 1-6, GST-SBP tag (UNK, Homo sapiens, UniProt Q9C0B0, residues 30-357)
Sequence of UniProt Q9C0B0 (30-357, looked up): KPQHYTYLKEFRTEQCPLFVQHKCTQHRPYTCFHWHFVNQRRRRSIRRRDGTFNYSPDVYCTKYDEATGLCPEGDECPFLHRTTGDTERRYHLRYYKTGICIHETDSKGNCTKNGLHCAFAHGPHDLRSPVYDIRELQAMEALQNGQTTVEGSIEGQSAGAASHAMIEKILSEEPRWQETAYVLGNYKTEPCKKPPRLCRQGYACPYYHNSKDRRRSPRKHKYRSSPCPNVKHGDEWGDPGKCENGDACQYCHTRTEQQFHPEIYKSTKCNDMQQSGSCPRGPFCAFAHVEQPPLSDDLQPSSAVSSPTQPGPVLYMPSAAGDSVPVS
Technique: RNA Bind-n-Seq
Molecule type: RNA
Sample: in vitro
Tested at: not given
Notes: RNA with constant flanks, human and mouse sites, ends assumed
Relative to: input RNA pool
Reading: higher = stronger binding
All sequences stand within: GGGAGUUCUACAGUCCGACGAUC … CAACAGAGGAUUGAGCAUCA
Oligonucleotide | bound/input enrichment [ratio]
GGAGGAGGGAUACGUUUCCACGAUAACUUCGGCUUUGAUGACCUAGUACGAGAUUUCAAUAGCAUCUUCAGCGAUAUGGGGGCCUGGACCUUGCCUUCCCAUCCUCCUGAACUUCCAGGU | 0.528
ACAAAUAUUUUUCAUGGUCACAUUUAUUAAAUGUUACUACAUUUCUGAAUUUUUGAAAAAUGUAUUUUAUCAUUAAAUGGCAUUAUUUUAAAGGGUGAAAAACUGACACAGUCAAUUCAG | 0.215
GUGCCUUCCCAAAUUGGUAAUCUGGAAGCCUUGAGAGACUUCAAUGUAAGAAGAAAUCAUCUUCUACGCUUGCCUGAAGAGCUGGCAGAGGUGCCUUUGAUACGGCUCGACUUCUCGUGC | 0.137
GAUGGAGUUUUAUAUGUAAAGCUCAGGGCAGGACAGCUCUCCUACAAAGAAGACCCAAUGGGGUGGCAGAGUUUGUUGGCACAAACUGUUGCUAAUAGGAACUCUGAAGCCCGGGCUUUC | 0.114
AUGAUUACUGUAGAUAUUAUUCCUUCUGGUUGGAAUUCAACUGAUGGGAAAAAUGAUAAAGCUAAAAGUGCACCUUCAAGAGACCCAGAAAAACUUCAGAAAAUCAAAGAAAGCCUCCUU | 0.158
UGGCAAGGGUUGUGCAAAUCCACUUGGGGUCACUGUUCCAUAUACAAUAAGAACCCACCUUUAGGAUUUUCUUUUAGAAAAUUGUAUAUGCAGCUGGAUGAAGGCAGCCUCACCUUUAAU | 1.23
ACAUUUUCCAUCUUCUAUAACAACACUCUGUUCCUGGUCGUGGUCAUUGUUGCUUCCUUCUUCAUAUUGAAGAACUUCAACCCCACAGUGUAUCCUUUUCAAGGAACUACAUAUUGUCCA | 0.359
AUAGAUGAAAUUGAUGUGGACCAGGAAGGAAUUGCUGAAAUGAUCCUGGAUGAAAAUGCUAUUGCUCAGGUCCCACGCCCUGGCACAUCUUUGAAGCUCCCUGGCACUAACCAAACAGGA | 0.258
UCUGUUUUGUCAGCAAGAGGAUUUAAGACUCACCCAGGGCAAACACUGGGACCACUGUAAGAGCGCUGGAACAUUCUGCCUCUUGAGUGAAGGGGCCUUCUUUCUAGCCUCUAUGGCACU | 0.129
UUCUAAAGGGCUCAAAACAAGGCACAGGCCAGCUGACUCGUGACUUGGUGUCUGUAACUGCUUAGUGGGUGCUCUGAUUUGGUGCGUGUUAUGAAGGGAGGGGGUCCCUGUACCCCUAUC | 0.314
GCUGUUAUCUAUGCGGGUGUAAGGGGAUAUCUUGAUAAACUGGAGCCCAGCAAGAUUACAAAGUUUGAGAAUGCUUUCUUGUCUCAUGUCGUCAGCCAGCACCAAGCCUUGUUGGGCACU | 0.143

Sample 4
Target: Interferon regulatory factor 7, full length, phosphomimetic (IRF7, Homo sapiens, UniProt Q92985, residues 1-503, S101K/S471D/S472D/S475D/S476D/S477D/S483D/S484D/S487D)
Technique: protein-binding microarray
Molecule type: double-stranded DNA, one strand shown
Sample: in vitro
Tested at: 250 nM
Notes: 60-bp whole probe
Together with: salmon DNA 0.4 mg/ml
Relative to: random background probes
Reading: higher = stronger binding
All sequences stand within: GCCTAGCAC … GTCTTGATTCGCTTGACGCTGCTG
Construct (chain): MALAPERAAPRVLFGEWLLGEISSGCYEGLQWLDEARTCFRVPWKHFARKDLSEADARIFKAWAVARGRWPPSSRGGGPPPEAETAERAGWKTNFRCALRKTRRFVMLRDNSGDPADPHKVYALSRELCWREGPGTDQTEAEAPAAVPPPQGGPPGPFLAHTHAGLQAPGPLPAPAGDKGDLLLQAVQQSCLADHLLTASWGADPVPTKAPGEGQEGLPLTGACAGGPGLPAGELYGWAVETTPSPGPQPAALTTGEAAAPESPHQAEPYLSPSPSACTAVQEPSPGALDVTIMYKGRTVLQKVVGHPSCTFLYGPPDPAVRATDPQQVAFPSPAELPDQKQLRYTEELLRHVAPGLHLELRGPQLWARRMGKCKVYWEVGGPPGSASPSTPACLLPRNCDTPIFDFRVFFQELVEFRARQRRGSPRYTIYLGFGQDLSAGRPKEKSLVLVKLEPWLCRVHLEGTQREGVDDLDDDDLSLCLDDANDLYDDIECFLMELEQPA
Oligonucleotide | log fluorescence
TCAGCTTTGCAGATAAAACTGTGCTAG | -0.332 z-score
TTAGATCTCAGTATGGATTAGTGCTAG | -0.0698 z-score
TTAGATCTCAGTCTCGACTAGTGCTAG | 0.682 z-score
GACGGACTGCTACTGCTCACGTGCTAG | -0.93 z-score
GACGATATCAGTCTCGCGACGTGCTAG | -0.191 z-score
GACGATATCGGGACTGGAGAGGTGCTA | -0.236 z-score
TTAGATTTCGGGACTGGATTTGTGCTA | 0.315 z-score
TTAAATCTCAGTATCGATTAGTGCTAG | 0.944 z-score
GCCAAAAGTGTAAATGTAAGGTGCTAG | -0.417 z-score
CCCTGTGTTACTTTCTACTTGTGCTAG | 0.0899 z-score
ATAGGTATCGGTATCGGTTAGTGCTAG | 2.88 z-score
ACCGATTTCCTTCACCCACTGTGCTAG | 1.21 z-score
TCATGTCTGGGCTTTTTCACTGTGCTA | -0.837 z-score
ATCCCGCCTGCCCCACAGAAGTGCTAG | 0.535 z-score
TCAAGCCTCCATTTTTAACTGTGCTAG | -0.296 z-score
GACGATAACAGACTGGAGACGTGCTAG | -0.419 z-score
GACGGTTTTGGTTCCGGGACGTGCTAG | 3.03 z-score
TTAGGTATCCTTTTCCTCTAGTGCTAG | 1.39 z-score
TTAGGTATAGGGTTTCGGTTAGTGCTA | 5.15 z-score
TTAGGTCTCTGTTTCGGTTAGTGCTAG | 5.69 z-score

For quick reference, copied from above (sample 1):
Oligonucleotide | 7-mer Z-score
AUCGUAU | -0.217
CACAAGC | -0.115
CUGGUGG | -0.161
CCGUAAC | -0.275
UAUAAUC | -0.164
ACAGAAA | 2.09
GACCGGC | -0.195
AUGGGUG | 0.0497
CGGACUG | 0.00979
GGAAUCA | 0.017
